{"data": "Assay results of several laboratories", "note": "Parts stem from different laboratories: compare values within a part only."}
{"data": "Sample 1", "target": "RING finger protein unkempt homolog, zinc fingers 1-6, GST-SBP tag (UNK, Homo sapiens, UniProt Q9C0B0, residues 30-357)", "method": "RNA Bind-n-Seq", "molecule type": "RNA", "medium": "in vitro", "tested at": "not given", "notes": "RNA with constant flanks, ends assumed", "baseline": "input RNA pool", "direction": "higher = stronger binding", "Construct (chain)": "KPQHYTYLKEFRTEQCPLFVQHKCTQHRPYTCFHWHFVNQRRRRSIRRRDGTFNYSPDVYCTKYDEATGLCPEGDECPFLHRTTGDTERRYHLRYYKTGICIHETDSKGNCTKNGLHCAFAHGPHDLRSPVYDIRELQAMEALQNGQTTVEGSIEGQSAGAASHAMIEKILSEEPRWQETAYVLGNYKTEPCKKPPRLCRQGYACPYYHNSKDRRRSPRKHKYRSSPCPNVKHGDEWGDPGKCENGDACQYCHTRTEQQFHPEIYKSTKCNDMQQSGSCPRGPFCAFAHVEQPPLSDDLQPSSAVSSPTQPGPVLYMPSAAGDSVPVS"}
{"Sequence": "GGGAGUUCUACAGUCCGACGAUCGCUGGGCAUAUAAUGGAAUUUUCUCAAGACCAGCAUGGCUCUAGAUUCAUUCAGCUGAAACCCGAGCGUGCCACAGCAGCUGAGCGCCAGCUUGUCUUCAAUGAAAUCCUCCAGGCUGCGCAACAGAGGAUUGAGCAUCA", "bound/input enrichment [ratio]": 0.163}
{"Sequence": "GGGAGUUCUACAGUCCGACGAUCAAAUCCUCAUUGACGAUUCAAUUUGUUGAAGGCCAAUUUGUGGACUCCUACGAUCCAACCACCGAAAACACUUUUACAAAGUUGAUCACAGUAAAUGGACAAGAAUAUCAUCUUCAACUUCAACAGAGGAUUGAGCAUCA", "bound/input enrichment [ratio]": 0.113}
{"Sequence": "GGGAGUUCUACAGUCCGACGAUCUAUCAUGCCUUUUCUCUAGUUUCUCUUUCAGGAUGGAAAGAAUAUUUUAAAAACAACAUUUCCGGACUUAAACAUUUGAUUUCGGUACCAGAUGAAUUGCUAACCUGUUACUGAUAAUUUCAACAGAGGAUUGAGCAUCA", "bound/input enrichment [ratio]": 0.866}
{"Sequence": "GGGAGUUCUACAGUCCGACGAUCAGCACCUGUCCACAUGGUGAGCCCGGUGCUCCCCAACCACCCCCGCCAUGAGGACCAAUGACCCGCCAGUGUAGAAUAAGUUUGGCCAGAUAAGGAGAUGGCACUGCCAAGUGAUACAUGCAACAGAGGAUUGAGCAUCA", "bound/input enrichment [ratio]": 0.397}
{"Sequence": "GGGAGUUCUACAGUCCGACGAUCUACACAAGGAAAGUUGACUACUUCCCAUUCCUGGAUUUAGGAGAGGAACUCAGAAGGCCCUCCGGAUGAUCUGUUUGUAUGGGAAGAAGUUAGAGACAAUGGAUUUUAUAAUUCCAGAUUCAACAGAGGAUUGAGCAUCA", "bound/input enrichment [ratio]": 0.0967}
{"Sequence": "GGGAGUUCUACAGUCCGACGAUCUUGUAUCGCUCUUACCAUAUGCCUGUUUGCAAAUCAUGAUCUUCACUGGGCUGGAAUUUUAUCCGAUUUUUGUUUUGUUUUUCCCUUUUUUCUCCUAGGCUGUCACUCUGUUGUUCUCCCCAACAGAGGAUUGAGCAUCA", "bound/input enrichment [ratio]": 4.45}
{"Sequence": "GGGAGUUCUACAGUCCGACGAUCGUUUGCUUUGUGAACAUAUGUGUAUUGUAUAUAUUCUGUAUAGUUAUACUGUACUGAAAUAUCCGCUUGUUUGAUAUGAGAAAAAGUAUGUAUUGAGUACCUUUUUGCUAGCCUGAUUGCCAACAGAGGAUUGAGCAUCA", "bound/input enrichment [ratio]": 0.494}
{"Sequence": "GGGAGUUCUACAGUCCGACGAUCGAAGUCAGAAAGAAAUGUGCUGAGGAGGCCCAACUGAUCUCUUCUCUGAAAGCUGAAUUAACCCGUCAGGAAUCGCAGAUCUCCACUUACGAAGAAGAAUUGGCAAAAGCUAGAGAAGAGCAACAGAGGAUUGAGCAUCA", "bound/input enrichment [ratio]": 0.227}
{"Sequence": "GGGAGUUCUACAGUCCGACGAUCGUGUUUGAGGAGAUGAAUGUGGAUCUGCAGGAGGAGCUGCCGUCCCUGUGGAACAGCCGCGCCGGUUUCUACGUCAACACGUUCCAGAGCAUCGCGGGCCUGGAGGAAAACUUCCACAAGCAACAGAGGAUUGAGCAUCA", "bound/input enrichment [ratio]": 0.0564}
{"Sequence": "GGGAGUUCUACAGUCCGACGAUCUCUACUUCCUCCUCCUCCUCUGAAGACGACUGUUUUGAGAGGAGAACAAAAAGGAACCGAAACCGAGCUAUUAACAGGUGCCUCCCACUAAAUUUUCGGAAAGAUGAAAUAAGAGGGAUUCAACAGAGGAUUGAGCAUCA", "bound/input enrichment [ratio]": 0.216}
{"Sequence": "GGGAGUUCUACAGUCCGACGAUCUAAAGGGAAAAGGCUAAAGAUCCACCCGCGGUUGCAUUUUCUUCUCUGUUAUCACUCUGCUACCCCGACUGUGAGAGGCUUUGCCUUCAGUCAGAUUACAGAGAGCAGGGUCUGACAUUGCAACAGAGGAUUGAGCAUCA", "bound/input enrichment [ratio]": 0.0765}
{"data": "Sample 2", "target": "Ras GTPase-activating protein-binding protein 1, RRM domain (G3BP1, Homo sapiens, UniProt Q13283)", "method": "RNA Bind-n-Seq", "molecule type": "RNA", "medium": "in vitro", "tested at": "1 µM", "notes": "whole 134-nt RNA, ends assumed", "with": "150 mM KCl", "baseline": "input library", "direction": "higher = stronger binding", "chain of UniProt Q13283 (whole entry, looked up)": "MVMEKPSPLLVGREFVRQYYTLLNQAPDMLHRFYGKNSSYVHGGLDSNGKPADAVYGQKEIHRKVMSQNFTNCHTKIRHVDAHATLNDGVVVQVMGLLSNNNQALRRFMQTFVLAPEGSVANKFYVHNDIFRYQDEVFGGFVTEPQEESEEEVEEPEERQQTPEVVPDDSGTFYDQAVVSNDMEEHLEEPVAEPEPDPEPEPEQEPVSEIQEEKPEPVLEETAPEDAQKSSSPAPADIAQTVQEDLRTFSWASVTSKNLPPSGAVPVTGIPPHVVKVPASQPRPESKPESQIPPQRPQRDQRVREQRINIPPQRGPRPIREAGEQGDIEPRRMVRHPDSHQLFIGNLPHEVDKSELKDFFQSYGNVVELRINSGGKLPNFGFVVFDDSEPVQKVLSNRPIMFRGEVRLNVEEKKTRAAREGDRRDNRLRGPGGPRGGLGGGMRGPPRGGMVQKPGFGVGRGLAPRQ"}
{"Sequence": "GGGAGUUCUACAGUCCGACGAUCUCAAGUCCUGUGCUACACAUCGUAUGUACCGAAUCGGCCCCGGCCCCGGCCCCGGAAAGUAUUAUGUUACGCCGUUCGGAUCUGCACUUCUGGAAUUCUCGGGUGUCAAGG", "log2 enrichment": -1.41}
{"Sequence": "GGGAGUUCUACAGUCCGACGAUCCUCAAGUCCUGUGCUACACAUCGUAUGUACCGAAUCGGUUUUUGGUGGUUUGGAAAGUAUUAUGUUACGCCGUUCGGAUCUGCACUUCCAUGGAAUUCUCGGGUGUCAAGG", "log2 enrichment": -0.37}
{"Sequence": "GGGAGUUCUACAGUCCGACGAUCCACAGAUAACACGCACCCACACAGACACAGAGGGAAGGGGUUGGGAUGGGGACAGGGUGCACAGCAGGGCGGGGUAGGACCCCAGCCCCUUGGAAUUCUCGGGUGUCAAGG", "log2 enrichment": -0.0832}
{"Sequence": "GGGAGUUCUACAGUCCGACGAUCUGGCCCUGGUGGCAUGCGGGGAGGAAGAGGUGGCCUCAUGGAUCGUGGUGGUCCAGGUGGAAUGUUCAGAGGUGGCCGUGGUGGAGACAGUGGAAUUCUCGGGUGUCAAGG", "log2 enrichment": 0.411}
{"Sequence": "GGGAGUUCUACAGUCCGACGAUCUCAAGUCCUGUGCUACACAUCGUAUGUACCGAAUCGGGAGGGUUUUUGGGUGGGAAAGUAUUAUGUUACGCCGUUCGGAUCUGCACUUCCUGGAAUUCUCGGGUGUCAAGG", "log2 enrichment": 0.663}
{"Sequence": "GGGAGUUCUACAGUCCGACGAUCGUCCUGUGCUACACAUCGUAUGUACCGAAUCGGGAAAAAGGGUUUGGGUUUUUUUGGGAAAGUAUUAUGUUACGCCGUUCGGAUCUGCACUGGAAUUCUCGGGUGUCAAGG", "log2 enrichment": 0.0643}
{"Sequence": "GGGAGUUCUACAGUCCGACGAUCCCUGUGCUACACAUCGUAUGUACCGAAUCGGGGCCCCCCGGCCCCCCGGGGCCCCCCGGGAAAGUAUUAUGUUACGCCGUUCGGAUCUGCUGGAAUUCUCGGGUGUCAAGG", "log2 enrichment": -0.704}
{"Sequence": "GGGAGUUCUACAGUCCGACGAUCAGUCCUGUGCUACACAUCGUAUGUACCGAAUCGGGUUUUUUUGGGUGGGAAAAAGGGAAAGUAUUAUGUUACGCCGUUCGGAUCUGCACUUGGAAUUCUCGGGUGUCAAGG", "log2 enrichment": 0.465}
{"Sequence": "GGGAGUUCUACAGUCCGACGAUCAAGUCCUGUGCUACACAUCGUAUGUACCGAAUCGGAAAAGGGAAAAGGGGAAAAGGAAAGUAUUAUGUUACGCCGUUCGGAUCUGCACUUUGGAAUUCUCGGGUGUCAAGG", "log2 enrichment": -0.146}
{"Sequence": "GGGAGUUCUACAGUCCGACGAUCCCUCAAGUCCUGUGCUACACAUCGUAUGUACCGAAUCGGGGAGGAGGAGGGGAAAGUAUUAUGUUACGCCGUUCGGAUCUGCACUUCCAGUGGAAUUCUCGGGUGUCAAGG", "log2 enrichment": -0.188}
{"data": "Sample 3", "target": "PABPC1L2, full length, GST fusion (mouse, UniProt A0ABA7IW68)", "method": "RNAcompete", "molecule type": "RNA", "medium": "in vitro", "tested at": "20 nM", "notes": "7-mer, probes averaged, single round", "baseline": "mean of 7-mers", "direction": "higher = stronger binding", "Residues (chain)": "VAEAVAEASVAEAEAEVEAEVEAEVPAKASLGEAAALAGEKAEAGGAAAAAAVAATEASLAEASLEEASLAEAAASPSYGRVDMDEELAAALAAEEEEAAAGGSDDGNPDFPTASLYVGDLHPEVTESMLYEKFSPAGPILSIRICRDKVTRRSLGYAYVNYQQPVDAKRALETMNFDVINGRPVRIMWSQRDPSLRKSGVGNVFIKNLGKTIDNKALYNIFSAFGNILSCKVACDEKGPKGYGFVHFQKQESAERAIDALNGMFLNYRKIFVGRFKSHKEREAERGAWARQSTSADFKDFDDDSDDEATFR"}
{"Sequence": "UUAAGCG", "7-mer Z-score": 0.0225}
{"Sequence": "GGCCUUG", "7-mer Z-score": -0.284}
{"Sequence": "UUACACU", "7-mer Z-score": -0.199}
{"Sequence": "UGAGUUA", "7-mer Z-score": -0.179}
{"Sequence": "CGGCCGA", "7-mer Z-score": -0.244}
{"Sequence": "GGACCGG", "7-mer Z-score": 0.144}
{"Sequence": "AGGUAAU", "7-mer Z-score": 0.0225}
{"Sequence": "CUCCGCA", "7-mer Z-score": -0.251}
{"Sequence": "GCAAUCG", "7-mer Z-score": -0.0192}
{"Sequence": "GGUUGGU", "7-mer Z-score": -0.115}
{"Sequence": "CGACCAA", "7-mer Z-score": 0.0605}
{"Sequence": "CACGCUU", "7-mer Z-score": -0.309}
{"Sequence": "AUAUCGU", "7-mer Z-score": -0.242}
{"Sequence": "UAUAGAG", "7-mer Z-score": -0.159}
{"Sequence": "GUGGUCA", "7-mer Z-score": 0.037}
{"Sequence": "CAGGCGU", "7-mer Z-score": 0.0551}
{"Sequence": "GCCAUUA", "7-mer Z-score": -0.251}
{"Sequence": "AACUCCG", "7-mer Z-score": -0.0826}
{"Sequence": "CGUGAAA", "7-mer Z-score": 0.501}
{"Sequence": "UCUCCCC", "7-mer Z-score": -0.452}
{"Sequence": "CCACCAG", "7-mer Z-score": -0.159}
{"Sequence": "CCACUCG", "7-mer Z-score": -0.266}
{"Sequence": "AAUCAGG", "7-mer Z-score": 0.309}
{"Sequence": "CCUUGAC", "7-mer Z-score": -0.289}
{"Sequence": "UUAUGAA", "7-mer Z-score": 0.0932}
{"data": "Sample 4", "target": "Histone acetyltransferase KAT6A, winged helix 1, GST fusion (KAT6A, Homo sapiens, UniProt Q92794, residues 1-85)", "method": "protein binding microarray", "molecule type": "double-stranded DNA, one strand shown", "medium": "in vitro", "tested at": "not given", "notes": "8-mer, flanks averaged, mean of 2 arrays, mostly near background", "baseline": "not given", "direction": "higher = stronger binding", "Residues (chain)": "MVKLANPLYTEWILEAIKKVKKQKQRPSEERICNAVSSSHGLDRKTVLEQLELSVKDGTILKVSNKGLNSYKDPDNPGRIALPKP"}
{"Sequence": "GCTCCGAC", "E-score": 0.0763}
{"Sequence": "GAACAGCA", "E-score": -0.103}
{"Sequence": "TTACACAA", "E-score": 0.0251}
{"Sequence": "AGCAGGCC", "E-score": 0.0379}
{"Sequence": "AGCATAGA", "E-score": -0.0814}
{"Sequence": "AGTAGCGC", "E-score": 0.376}
{"Sequence": "AGCCACTA", "E-score": -0.0518}
{"Sequence": "AGCCAAGA", "E-score": -0.244}
{"Sequence": "GATGTCCA", "E-score": -0.0147}
{"Sequence": "CGTTAAAA", "E-score": 0.0152}
{"Sequence": "GCCGGCAA", "E-score": 0.421}
{"Sequence": "GCTAGTAA", "E-score": -0.0902}
{"Sequence": "ACGTGGGC", "E-score": -0.0867}
{"Sequence": "ACCAAAAA", "E-score": -0.0923}
{"Sequence": "GTTTGGCA", "E-score": -0.155}
{"Sequence": "ATTGCACG", "E-score": -0.00871}
{"Sequence": "CTCGCGAG", "E-score": 0.108}
{"Sequence": "CAGTGGGA", "E-score": -0.215}
{"Sequence": "ACCCATGA", "E-score": -0.272}
{"Sequence": "ACGGCCGA", "E-score": 0.396}
{"Sequence": "ATCTCCTC", "E-score": -0.114}
{"Sequence": "ACCGCACA", "E-score": 0.117}
{"Sequence": "CGAAGTCG", "E-score": 0.0651}
{"Sequence": "CATTGGAG", "E-score": -0.0275}
{"Sequence": "GGAGCGCC", "E-score": 0.244}
